Measured values from different studies.
Each numbered part is a random draw from the data of one study; scales do not carry over between parts. Several values in a cell are separate wells, animals, samples, runs or records.

Block 1 — read-out: cell viability; technique: CellCounting-Lite; temperature: 37 °C; direction: higher = more viable cells; endpoint: luminescence signal
SMILES: CCn1cnc2c(NCc3nc4cc(Cl)c(Cl)cc4[nH]3)nc(N3CCN(C(=O)c4ccccc4)CC3)nc21
cell line = MDA-MB-231; setting = 8.23 nM; value = 526000 a.u. and 443000 a.u. and 463000 a.u.
cell line = MDA-MB-231; setting = 74.07 nM; value = 138000 a.u. and 124000 a.u. and 150000 a.u.
cell line = MDA-MB-468; setting = 0.9145 nM; value = 434000 a.u. and 457000 a.u. and 478000 a.u.
cell line = MDA-MB-231; setting = 222.2 nM; value = 13200 a.u. and 12400 a.u. and 10300 a.u.
cell line = MDA-MB-468; setting = 24.69 nM; value = 258000 a.u. and 262000 a.u. and 269000 a.u.

Block 2 — technique: in-cell ELISA; endpoint: phospho-ERK1/2 level
Structure (SMILES): CCN1CCN(Cc2ccc(COc3c(-c4c(C)c(F)cc5[nH]ncc45)c(C4CC4)cc4c(N5C[C@@H]6C[C@H]5CN6)nc(OC5CCOCC5)nc34)cc2)C(=O)C1
cell line = AsPC-1; setting = 100 nM, 2 h; value = 14.6% and 19% and 14.3% and 20.2%
cell line = AsPC-1; setting = 10 µM, 2 h; value = 11.7% and 6.7% and 7.6% and 9.5%
cell line = AsPC-1 (KRAS G12D); setting = 100 nM, 24 h; value = 95.8% and 93.2% and 97% and 99.2%
cell line = AsPC-1 (KRAS G12D); setting = 3 µM, 24 h; value = 15.4% and 19.1% and 16.6% and 18.3%
cell line = AsPC-1 (KRAS G12D); setting = 300 nM, 24 h; value = 82.2% and 85.8% and 80.1% and 85.5%
cell line = AsPC-1; setting = 1 µM, 2 h; value = 1.6% and 3.8% and 4.7% and 3.7%
cell line = AsPC-1 (KRAS G12D); setting = 1 nM, 24 h; value = 98.4% and 97.4% and 104% and 106%
cell line = AsPC-1; setting = 300 nM, 2 h; value = 3.4% and 6.3% and 5% and 7.7%

Block 3 — cell line: U-87 MG; tested at: concentration not given; baseline: DMSO; endpoint: log2 fold change
SMILES: CCN1/C(=C/C=C2\CCCC(/C=C/C3=[N+](CC)c4ccccc4C3(C)C)=C2NCCCCCCCCN2CCC(Nc3nc4ccccc4n3Cc3ccc(F)cc3)CC2)C(C)(C)c2ccccc21
test = measured: CDC20 mRNA; value = -2.32
test = measured: ABL2 mRNA; value = 1.23
test = measured: IGFLR1 mRNA; value = -2.12
test = measured: KRT33B mRNA; value = 3.77
test = measured: SERPINA9 mRNA; value = 5.83
test = measured: NME4 mRNA; value = -0.809
test = measured: CCN3 mRNA; value = -1.02
test = measured: PLCG2 mRNA; value = 3.42

Block 4 — mode: degrader; technique: HiBiT; cell line: HEK293; endpoint: protein remaining
Structure (SMILES): Cn1cc(-c2cccc(CN3CCC4(CC3)COc3c4ccc4c3CN([C@H]3CCC(=O)NC3=O)C4=O)c2)cn1
Target: CRBN/Zinc finger protein Helios (Homo sapiens, UniProt Q96SW2+Q9UKS7)
Chain of UniProt Q9UKS7 (whole entry, looked up): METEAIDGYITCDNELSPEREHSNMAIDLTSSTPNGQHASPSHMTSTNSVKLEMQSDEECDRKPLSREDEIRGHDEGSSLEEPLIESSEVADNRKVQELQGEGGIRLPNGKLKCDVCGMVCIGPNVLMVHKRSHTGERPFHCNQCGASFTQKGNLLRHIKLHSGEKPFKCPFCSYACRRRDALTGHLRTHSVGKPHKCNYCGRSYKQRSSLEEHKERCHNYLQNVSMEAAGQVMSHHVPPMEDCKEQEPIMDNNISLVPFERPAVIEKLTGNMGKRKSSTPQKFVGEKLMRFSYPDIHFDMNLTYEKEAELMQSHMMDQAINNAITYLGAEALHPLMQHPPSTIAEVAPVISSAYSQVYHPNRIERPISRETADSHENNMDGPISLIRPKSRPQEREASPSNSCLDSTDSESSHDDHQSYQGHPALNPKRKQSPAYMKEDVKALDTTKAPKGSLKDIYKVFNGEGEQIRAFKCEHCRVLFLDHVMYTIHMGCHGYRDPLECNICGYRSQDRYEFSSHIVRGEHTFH
Chain of UniProt Q96SW2 (whole entry, looked up): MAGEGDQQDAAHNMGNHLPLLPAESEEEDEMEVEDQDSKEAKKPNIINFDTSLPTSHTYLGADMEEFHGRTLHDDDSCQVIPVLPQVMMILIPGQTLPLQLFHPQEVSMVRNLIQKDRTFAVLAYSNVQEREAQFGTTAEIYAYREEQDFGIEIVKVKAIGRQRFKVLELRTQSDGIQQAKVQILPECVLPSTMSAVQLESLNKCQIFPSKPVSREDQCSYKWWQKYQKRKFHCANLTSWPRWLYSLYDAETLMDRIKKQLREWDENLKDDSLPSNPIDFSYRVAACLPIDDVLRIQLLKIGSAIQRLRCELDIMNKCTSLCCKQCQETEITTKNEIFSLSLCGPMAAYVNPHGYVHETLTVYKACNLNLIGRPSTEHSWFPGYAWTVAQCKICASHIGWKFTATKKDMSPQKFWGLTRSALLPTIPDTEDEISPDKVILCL
setting = 0.05081 nM, 0.5 h; value = 94.9% and 100%
setting = 0.4572 nM, 3 h; value = 64.3% and 65.5%
setting = 111.1 nM, 0.5 h; value = 69.4% and 75.6%
setting = 0.4572 nM, 6 h; value = 58.5% and 53.2%

A few entries again (block 1):
cell line = MDA-MB-468; setting = 0.9145 nM; value = 434000 a.u. and 457000 a.u. and 478000 a.u.
cell line = MDA-MB-231; setting = 222.2 nM; value = 13200 a.u. and 12400 a.u. and 10300 a.u.
cell line = MDA-MB-468; setting = 24.69 nM; value = 258000 a.u. and 262000 a.u. and 269000 a.u.
